Published values of several laboratories.
Lines come from different studies, so protocols differ. Numbers after ± are the reported error.
Papain: Papain (Carica papaya, UniProt P00784)

Chains of the proteins cited; added tags and fusions are not shown. Residues count along the entry.
UniProt P00784, 134-345 limits assumed: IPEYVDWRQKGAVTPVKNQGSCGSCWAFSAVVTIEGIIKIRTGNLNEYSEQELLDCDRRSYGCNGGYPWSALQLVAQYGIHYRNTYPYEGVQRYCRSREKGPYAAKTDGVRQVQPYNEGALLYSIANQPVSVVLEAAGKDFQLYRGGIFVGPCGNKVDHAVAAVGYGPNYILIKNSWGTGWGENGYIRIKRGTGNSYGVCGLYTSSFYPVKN
UniProt Q8I719, whole entry: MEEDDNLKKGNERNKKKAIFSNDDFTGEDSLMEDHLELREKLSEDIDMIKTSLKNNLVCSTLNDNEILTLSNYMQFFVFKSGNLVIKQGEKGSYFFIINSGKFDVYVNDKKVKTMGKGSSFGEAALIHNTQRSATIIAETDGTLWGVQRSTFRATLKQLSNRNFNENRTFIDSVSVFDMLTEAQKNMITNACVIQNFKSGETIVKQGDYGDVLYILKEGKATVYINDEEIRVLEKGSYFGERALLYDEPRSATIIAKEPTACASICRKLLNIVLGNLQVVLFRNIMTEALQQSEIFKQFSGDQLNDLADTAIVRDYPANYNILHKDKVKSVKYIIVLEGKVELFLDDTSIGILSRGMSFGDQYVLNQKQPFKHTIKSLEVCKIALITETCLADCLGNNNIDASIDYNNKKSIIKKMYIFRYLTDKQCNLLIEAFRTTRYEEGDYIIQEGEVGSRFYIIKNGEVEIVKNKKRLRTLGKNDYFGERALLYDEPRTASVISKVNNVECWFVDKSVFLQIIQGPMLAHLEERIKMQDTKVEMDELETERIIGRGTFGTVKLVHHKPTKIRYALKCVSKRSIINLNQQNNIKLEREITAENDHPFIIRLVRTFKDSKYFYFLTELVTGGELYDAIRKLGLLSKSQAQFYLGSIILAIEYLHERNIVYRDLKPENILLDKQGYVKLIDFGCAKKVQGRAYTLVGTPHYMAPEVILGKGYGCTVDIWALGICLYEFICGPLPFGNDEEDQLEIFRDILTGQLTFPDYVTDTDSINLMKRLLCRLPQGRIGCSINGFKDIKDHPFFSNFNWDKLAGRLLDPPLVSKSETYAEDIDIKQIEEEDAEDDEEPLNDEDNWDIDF
UniProt P14867, whole entry, looked up: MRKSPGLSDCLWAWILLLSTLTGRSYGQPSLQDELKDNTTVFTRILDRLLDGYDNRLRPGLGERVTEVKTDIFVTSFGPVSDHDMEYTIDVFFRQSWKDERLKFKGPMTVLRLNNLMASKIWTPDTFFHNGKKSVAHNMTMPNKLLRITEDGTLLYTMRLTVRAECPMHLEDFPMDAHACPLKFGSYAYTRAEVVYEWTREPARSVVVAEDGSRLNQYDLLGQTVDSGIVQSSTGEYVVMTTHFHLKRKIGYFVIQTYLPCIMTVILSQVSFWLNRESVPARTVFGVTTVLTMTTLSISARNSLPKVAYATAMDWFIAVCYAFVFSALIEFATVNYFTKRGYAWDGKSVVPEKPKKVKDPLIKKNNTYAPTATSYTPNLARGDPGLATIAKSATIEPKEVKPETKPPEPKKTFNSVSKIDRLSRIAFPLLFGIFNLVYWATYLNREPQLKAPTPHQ
UniProt P28472, whole entry, looked up: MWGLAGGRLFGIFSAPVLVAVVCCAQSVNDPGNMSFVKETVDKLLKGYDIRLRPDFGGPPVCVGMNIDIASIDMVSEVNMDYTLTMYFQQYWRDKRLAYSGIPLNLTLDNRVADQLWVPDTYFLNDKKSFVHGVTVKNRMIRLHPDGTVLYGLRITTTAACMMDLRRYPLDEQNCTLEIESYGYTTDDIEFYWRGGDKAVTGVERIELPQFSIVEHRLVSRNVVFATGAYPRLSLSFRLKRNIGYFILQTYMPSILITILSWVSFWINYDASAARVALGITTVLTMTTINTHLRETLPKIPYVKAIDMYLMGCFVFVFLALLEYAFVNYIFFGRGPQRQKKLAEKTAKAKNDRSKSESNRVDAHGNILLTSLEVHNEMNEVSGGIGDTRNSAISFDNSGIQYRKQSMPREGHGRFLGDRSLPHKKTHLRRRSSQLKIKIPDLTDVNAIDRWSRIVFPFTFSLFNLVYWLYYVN
UniProt Q5M848, whole entry: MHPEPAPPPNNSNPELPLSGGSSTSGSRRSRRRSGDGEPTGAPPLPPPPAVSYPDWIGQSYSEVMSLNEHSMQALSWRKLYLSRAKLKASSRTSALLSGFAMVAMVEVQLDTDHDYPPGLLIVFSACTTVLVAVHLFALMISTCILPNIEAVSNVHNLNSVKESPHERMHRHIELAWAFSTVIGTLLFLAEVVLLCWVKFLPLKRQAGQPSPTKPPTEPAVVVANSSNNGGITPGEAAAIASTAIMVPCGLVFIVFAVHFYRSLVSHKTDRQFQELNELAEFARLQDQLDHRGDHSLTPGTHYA
UniProt Q48485, 24-384 limits assumed: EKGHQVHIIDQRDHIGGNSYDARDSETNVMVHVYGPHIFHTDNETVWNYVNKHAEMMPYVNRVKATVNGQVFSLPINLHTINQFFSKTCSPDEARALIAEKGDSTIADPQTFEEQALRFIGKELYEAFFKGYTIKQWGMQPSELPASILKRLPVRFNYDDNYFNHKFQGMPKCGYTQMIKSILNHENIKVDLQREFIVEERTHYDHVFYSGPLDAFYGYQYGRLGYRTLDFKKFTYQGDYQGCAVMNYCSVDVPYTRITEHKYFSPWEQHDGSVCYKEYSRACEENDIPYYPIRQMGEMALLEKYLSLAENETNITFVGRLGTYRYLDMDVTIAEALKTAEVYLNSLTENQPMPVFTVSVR
UniProt P29990, whole entry, looked up: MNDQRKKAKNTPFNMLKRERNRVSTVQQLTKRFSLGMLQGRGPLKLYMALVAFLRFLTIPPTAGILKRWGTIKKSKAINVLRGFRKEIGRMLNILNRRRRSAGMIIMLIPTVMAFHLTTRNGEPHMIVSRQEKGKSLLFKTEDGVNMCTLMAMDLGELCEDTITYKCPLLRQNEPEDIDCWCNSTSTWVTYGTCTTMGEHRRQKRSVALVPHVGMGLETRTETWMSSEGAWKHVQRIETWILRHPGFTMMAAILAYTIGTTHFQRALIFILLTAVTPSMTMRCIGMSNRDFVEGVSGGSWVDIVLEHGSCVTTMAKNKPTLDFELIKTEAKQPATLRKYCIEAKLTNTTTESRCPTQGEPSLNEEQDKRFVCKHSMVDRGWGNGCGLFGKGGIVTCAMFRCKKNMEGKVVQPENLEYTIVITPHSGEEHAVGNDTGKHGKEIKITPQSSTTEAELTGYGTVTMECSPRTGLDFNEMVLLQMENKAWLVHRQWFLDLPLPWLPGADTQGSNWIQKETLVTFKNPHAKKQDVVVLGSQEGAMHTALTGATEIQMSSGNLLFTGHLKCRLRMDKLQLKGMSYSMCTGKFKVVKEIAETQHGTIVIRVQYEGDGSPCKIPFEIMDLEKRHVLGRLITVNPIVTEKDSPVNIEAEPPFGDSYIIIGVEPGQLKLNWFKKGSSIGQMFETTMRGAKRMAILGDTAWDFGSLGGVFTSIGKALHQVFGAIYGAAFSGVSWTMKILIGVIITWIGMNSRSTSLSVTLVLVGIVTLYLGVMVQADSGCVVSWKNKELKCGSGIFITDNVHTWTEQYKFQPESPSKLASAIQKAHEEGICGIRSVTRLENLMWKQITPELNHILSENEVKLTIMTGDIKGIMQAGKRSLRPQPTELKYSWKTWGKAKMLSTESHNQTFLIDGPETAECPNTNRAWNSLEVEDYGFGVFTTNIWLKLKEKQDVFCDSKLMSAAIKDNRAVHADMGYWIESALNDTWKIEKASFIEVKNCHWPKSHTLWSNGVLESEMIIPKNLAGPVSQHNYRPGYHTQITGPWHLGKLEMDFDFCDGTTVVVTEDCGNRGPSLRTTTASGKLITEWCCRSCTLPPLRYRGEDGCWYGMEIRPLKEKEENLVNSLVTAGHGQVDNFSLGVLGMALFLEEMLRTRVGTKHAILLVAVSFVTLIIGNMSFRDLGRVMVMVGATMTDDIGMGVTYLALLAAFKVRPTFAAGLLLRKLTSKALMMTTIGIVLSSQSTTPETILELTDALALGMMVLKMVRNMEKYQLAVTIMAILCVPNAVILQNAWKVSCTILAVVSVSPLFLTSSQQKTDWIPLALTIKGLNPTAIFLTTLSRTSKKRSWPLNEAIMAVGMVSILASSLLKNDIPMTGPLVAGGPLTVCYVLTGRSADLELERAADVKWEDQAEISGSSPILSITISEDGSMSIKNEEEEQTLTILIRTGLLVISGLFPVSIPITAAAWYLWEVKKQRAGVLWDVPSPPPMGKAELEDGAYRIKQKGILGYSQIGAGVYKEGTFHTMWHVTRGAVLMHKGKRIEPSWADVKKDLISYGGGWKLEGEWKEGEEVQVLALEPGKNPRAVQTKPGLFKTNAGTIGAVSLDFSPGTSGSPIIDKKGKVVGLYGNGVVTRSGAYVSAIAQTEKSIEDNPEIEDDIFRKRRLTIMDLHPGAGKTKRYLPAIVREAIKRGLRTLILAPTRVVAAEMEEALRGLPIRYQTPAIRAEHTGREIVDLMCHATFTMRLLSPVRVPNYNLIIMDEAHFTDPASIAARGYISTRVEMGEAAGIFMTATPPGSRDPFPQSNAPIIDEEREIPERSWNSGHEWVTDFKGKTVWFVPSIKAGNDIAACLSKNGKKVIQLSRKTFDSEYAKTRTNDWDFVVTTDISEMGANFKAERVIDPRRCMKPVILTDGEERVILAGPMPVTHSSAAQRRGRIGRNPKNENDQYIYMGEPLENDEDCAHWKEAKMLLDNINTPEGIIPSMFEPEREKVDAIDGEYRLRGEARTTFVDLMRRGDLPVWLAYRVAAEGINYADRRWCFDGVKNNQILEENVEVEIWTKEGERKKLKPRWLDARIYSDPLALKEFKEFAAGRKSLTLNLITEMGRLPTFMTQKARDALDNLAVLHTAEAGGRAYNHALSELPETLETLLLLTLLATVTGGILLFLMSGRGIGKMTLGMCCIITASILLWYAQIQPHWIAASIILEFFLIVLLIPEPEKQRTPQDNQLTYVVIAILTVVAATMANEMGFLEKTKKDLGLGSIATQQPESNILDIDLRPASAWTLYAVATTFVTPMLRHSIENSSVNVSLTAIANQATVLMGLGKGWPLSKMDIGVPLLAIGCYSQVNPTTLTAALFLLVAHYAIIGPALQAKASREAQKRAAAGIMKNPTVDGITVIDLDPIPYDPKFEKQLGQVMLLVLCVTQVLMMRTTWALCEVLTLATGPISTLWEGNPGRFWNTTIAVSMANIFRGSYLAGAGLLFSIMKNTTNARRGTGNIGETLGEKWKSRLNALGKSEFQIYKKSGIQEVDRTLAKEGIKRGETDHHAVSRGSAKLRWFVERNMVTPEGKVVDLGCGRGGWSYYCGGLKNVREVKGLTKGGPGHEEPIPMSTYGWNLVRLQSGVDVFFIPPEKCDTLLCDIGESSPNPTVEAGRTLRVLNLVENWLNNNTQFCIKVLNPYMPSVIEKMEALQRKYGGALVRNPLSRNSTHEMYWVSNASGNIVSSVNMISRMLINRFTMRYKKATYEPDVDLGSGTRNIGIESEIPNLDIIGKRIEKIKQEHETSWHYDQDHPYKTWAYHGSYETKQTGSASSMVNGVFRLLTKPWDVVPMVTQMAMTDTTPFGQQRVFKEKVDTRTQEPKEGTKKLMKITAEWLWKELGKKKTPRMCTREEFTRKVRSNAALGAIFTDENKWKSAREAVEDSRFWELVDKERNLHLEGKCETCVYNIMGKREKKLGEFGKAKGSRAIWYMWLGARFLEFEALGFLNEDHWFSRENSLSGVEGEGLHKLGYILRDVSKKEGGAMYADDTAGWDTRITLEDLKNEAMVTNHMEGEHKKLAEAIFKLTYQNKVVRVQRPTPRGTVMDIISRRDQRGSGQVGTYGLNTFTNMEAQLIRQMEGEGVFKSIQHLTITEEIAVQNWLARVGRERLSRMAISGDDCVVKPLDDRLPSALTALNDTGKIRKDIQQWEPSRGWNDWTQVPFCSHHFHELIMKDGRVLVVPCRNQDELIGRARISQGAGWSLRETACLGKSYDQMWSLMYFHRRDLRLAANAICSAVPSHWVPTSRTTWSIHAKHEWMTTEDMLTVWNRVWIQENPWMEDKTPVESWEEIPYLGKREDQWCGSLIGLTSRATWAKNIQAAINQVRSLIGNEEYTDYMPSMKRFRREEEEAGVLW

| Structure (SMILES) | tested on | test | test system | setting | measurement | value |
| --- | --- | --- | --- | --- | --- | --- |
| NCCNCCSc1ccccc1 | – | – | Swiss Albino mouse, female | oral, 600 mg/kg, single dose, non-compartmental | lag time (Tlag) | 0 min |
| CS(=O)(=O)Cc1onc(-c2cccc(Cl)c2)c1-c1ccnc(N[C@@H]2CCN(Cc3nccs3)C2)n1 | cGMP-dependent protein kinase (PKG, Plasmodium falciparum, UniProt Q8I719) | kinase activity, inhibitor, IMAP | – | 10 µM | inhibition | 86.5 ± 0.7% |
| Cc1ccccc1S(=O)(=O)Nc1cccc(C(=O)NC2CCN(c3ncnc4[nH]cnc34)CC2)c1 | A549-ACE2 | – | – | 0.01016 µM | viability | 100% |
| O=C(NC1CC1)C(=O)[C@H](Cc1ccccc1)NC(=O)[C@H]1CCC(=O)N1Cc1ccccc1 | Papain | enzyme activity, inhibitor | – | 1 µM | inhibition | 2.9% |
| O=C1NC(=O)C2(Cc3ccccc32)N1 (racemic) | GABA-A receptor alpha-1/beta-3, with gamma-2 subunit (GABRA1/GABRB3, Homo sapiens, UniProt P14867+P28472) | etomidate-enhanced [3H]muscimol binding, inhibitor | – | 300 µM | inhibition | 65% |
| Cc1cnccc1C(=O)Nc1nn(Cc2ccc(Cl)cc2Cl)c2ccccc12 | Calcium release-activated calcium channel protein 1, with STIM1 (Rattus norvegicus, UniProt Q5M848) | Ca2+ influx, inhibitor | RBL-2H3 | 30 µM, together with: thapsigargin | inhibition | ~50% |
| O=C(CCl)Nc1ccc2c(Nc3ccccc3)ncnc2c1 | EGFR (Homo sapiens, UniProt P00533) | kinase activity, inhibitor, kinase panel | – | 300 nM | inhibition | inhibited |
| O=C(O)CC1Sc2nnc(-c3cccs3)n2N=C1c1ccc(Cl)cc1 (stereo not shown) | UDP-galactopyranose mutase (Klebsiella pneumoniae, UniProt Q48485) | enzyme activity, inhibitor, HPLC | – | 100 µM | inhibition | 95% |
| COc1ccc(CN[C@@H]2CO[C@H](C(c3ccccc3)c3ccccc3)C[C@H]2O)cc1 | ADRA1D (Homo sapiens, UniProt P25100) | radioligand binding | – | 10 µM, together with: [3H]prazosin | inhibition | 30% |
| COc1ccc(S(=O)(=O)Nc2cccc(C(=O)NC3CCN(c4ncnc5[nH]cnc45)CC3)c2)cc1 | A549-ACE2 | – | – | 0.03048 µM | viability | 103% |
| CCNC(=O)C(=O)[C@H](Cc1ccccc1)NC(=O)[C@H]1CCC(=O)N1Cc1ccccc1 | Papain | enzyme activity, inhibitor | – | 1 µM | inhibition | 0% |
| N=C(N)NCCC[C@H](NC(=O)c1ccccc1)C(=O)N[C@@H](CCCCN)C(=O)N[C@@H](C(N)=O)c1ccc(OCc2ccccc2)cc1 | Genome polyprotein, NS2B-NS3 protease (dengue virus type 2, UniProt P29990) | enzyme activity, inhibitor, FRET | dengue virus, serotype 2 | 50 µM, together with: substrate 50 µM | inhibition | 100 ± 3% |
| CCCOC(=O)[C@@]12C[C@@H]1[C@@H](n1cnc3c(NC)nc(C#Cc4ccc(Cl)s4)nc31)[C@H](O)[C@@H]2O | SLC6A4 (Homo sapiens, UniProt P31645) | binding, radioligand binding | HEK293 | 10 µM, negative means enhanced binding, together with: [3H]citalopram | inhibition | 26 ± 4% |

A few entries again:
| Structure (SMILES) | tested on | test | test system | setting | measurement | value |
| --- | --- | --- | --- | --- | --- | --- |
| CS(=O)(=O)Cc1onc(-c2cccc(Cl)c2)c1-c1ccnc(N[C@@H]2CCN(Cc3nccs3)C2)n1 | cGMP-dependent protein kinase (PKG, Plasmodium falciparum, UniProt Q8I719) | kinase activity, inhibitor, IMAP | – | 10 µM | inhibition | 86.5 ± 0.7% |
| Cc1ccccc1S(=O)(=O)Nc1cccc(C(=O)NC2CCN(c3ncnc4[nH]cnc34)CC2)c1 | A549-ACE2 | – | – | 0.01016 µM | viability | 100% |
